Measurements from different studies.
Each numbered part is a random draw from the data of one study; scales do not carry over between parts.
Chain of UniProt Q9HCJ0 (1786-1901, looked up): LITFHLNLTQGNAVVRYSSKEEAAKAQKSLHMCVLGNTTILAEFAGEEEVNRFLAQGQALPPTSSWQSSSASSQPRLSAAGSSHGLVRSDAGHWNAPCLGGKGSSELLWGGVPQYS

Sample 1
Target: Interferon regulatory factor 5, full length, phosphomimetic (IRF5, Homo sapiens, UniProt Q13568-2, residues 1-514, K96S/S451D/S453D/S456D/S462D)
Technique: protein-binding microarray
Molecule type: double-stranded DNA, one strand shown
Matrix: in vitro
Concentration: 250 nM
Setting: 60-bp whole probe
Together with: salmon DNA 0.4 mg/ml
Baseline: random background probes
Direction: higher = stronger binding
All sequences stand within: GCCTAGCAC … GTGCTAGGTCTTGATTCGCTTGACGCTGCTG
| Oligonucleotide | log fluorescence |
| --- | --- |
| TTAGATCTCCGTCTCGATTA | 0.37 z-score |
| TTAGGTCTCCTTCTCCCTTA | -0.171 z-score |
| GCAACATTCACCATGGCTAG | 0.182 z-score |
| GACGGACTGCTACTGCTGAA | -0.55 z-score |
| GACAACTGATATCAAAGGGA | 0.483 z-score |
| TTAGATATAAGTTTCGATTA | 8.64 z-score |
| TTAAGTTCCCTTTTCCTTTA | 0.952 z-score |
| GACGGACTGAGTCTCGAGAC | -0.393 z-score |

Sample 2
Target: RNA binding protein fox-1 homolog 2, RRM domain, GST-SBP tag (RBFOX2, Homo sapiens, UniProt O43251-10, residues 100-194)
Technique: RNA Bind-n-Seq
Molecule type: RNA
Matrix: in vitro
Concentration: 365 nM
Setting: natural RNA segment, single round, ends assumed
Baseline: no-protein control
Direction: higher = stronger binding
All sequences stand within: GGGAGUUCUACAGUCCGACGAUC … UGGAAUUCUCGGGUGCCAA
Residues (chain): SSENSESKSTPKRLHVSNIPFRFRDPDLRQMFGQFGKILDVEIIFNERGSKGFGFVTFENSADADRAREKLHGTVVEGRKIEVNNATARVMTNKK
| Oligonucleotide | RBNS enrichment (R) |
| --- | --- |
| GUGGCUGCCUGGACCUCAAUACCCCAAGUCCACCUGCCUAUCCAUCCUGCGAGCUCCUUGGGUCCUGCAAUCUCCAGGGCUGCCCCUGUAGGUUGCUUAAAAGGGACAGU | 0.405 |
| GAAAAUAUUUCUUUUAUGAUUUUCUUCUCCCACUCCCUGUCCUCCAGUGUUCUGUUAAUAUUAUUUGUAAUUUAGUUUGUAAAUUCAUUAAAAGAAAAUAUUCUCAGCUG | 0.585 |
| GGUCCCUUGCAGCUAGUUUUCUAGAAUUUAUCACACUUCUGUGAGACCCCCACACCUCAGUUCCCUUGGCCUCAGAAUUCACAAAAUUUCCACAAAAUCUGUCCAAAGGA | 0.585 |
| CAAGAAAACUUUGAAAAGAACAUGCUUUAACUGAAGCAUUGGACUCUGCAGCUUUCUGUGUAAGGCCCGUGUACUCCCACUGGGCAGGGUGAGGACCAAAAAUCUGAAAC | 0.292 |
| GUUGUUUCUAUGCCUUCUGACCCAGUUUCCCAGUUUAUAACUUUAUGACAAUGAGUUUCUCAAGCCCAAGGCCUUAUCUUCACCCCACAAACAAUAAAGCAAAGUAAAGA | 0.459 |
| UAGUAGGAAUGUUUUAACAGUGUCAUAUGAAAAAGAACAAAAUAAAUAUUUUGAUUUUGUGAUUCUAUGCAAGUCUUUCUGCCCAGAGUGAUAAUGCAAUAAGCUAGUCU | 0.51 |
| AUUAAGUAGUAACAGAAGUCUGAACAAUUGGAUAAAUUUGACUUCCAAGACAGCUAAACUUUUCAACUGCAAUUUUAAAAACUACACUACACUGUUAUAGUUAAUCUGAC | 0.348 |
| UUGGUAAGUAUUCCUUAGGUUUUUCUUUGAAAACCUGGGAUUGAGAGGUUGAUGAAUGGAAAUUCUUUCACUUCAUUAUAUGCAAGUUUUCAAUAAUUAGGUCUAAGUGG | 0.593 |

Single results of other studies
| Molecule | tested on | test | system | setting | scale | quantity | result |
| --- | --- | --- | --- | --- | --- | --- | --- |
| C[C@H]1CC[C@@]2(O)C(C)(C)[C@@H]3CC[C@@]2(C)[C@H]1C3 | A-375 |  |  | 100 µM, 36 h |  | viability | 0.709% |
| AAAAAAAA (biotin) | Trinucleotide repeat-containing gene 6C protein, RRM domain (TNRC6C, Homo sapiens, UniProt Q9HCJ0, residues 1786-1901) | protein domain microarray | RNA, in vitro | not given, poly(A) 8-mer RNA, whole probe, immobilized GST-fusion domains, most near background | baseline: GST loading signal, higher = stronger binding | signal ratio | 0.0528 |

Repeated from above (sample 2):
| Oligonucleotide | RBNS enrichment (R) |
| --- | --- |
| GUGGCUGCCUGGACCUCAAUACCCCAAGUCCACCUGCCUAUCCAUCCUGCGAGCUCCUUGGGUCCUGCAAUCUCCAGGGCUGCCCCUGUAGGUUGCUUAAAAGGGACAGU | 0.405 |
| GAAAAUAUUUCUUUUAUGAUUUUCUUCUCCCACUCCCUGUCCUCCAGUGUUCUGUUAAUAUUAUUUGUAAUUUAGUUUGUAAAUUCAUUAAAAGAAAAUAUUCUCAGCUG | 0.585 |
